Assay results from different studies.
Several values in a cell are separate wells, animals, samples, runs or records. ± gives the spread as reported.

Structure (SMILES) | assay | test system | setting | how to read | endpoint | result
COc1ccc(-c2cncc(N[C@@H](C)c3cccc(NC(=O)c4cncc(C)c4)c3)n2)cc1OC | measured: rno-miR-186-5p | rat SU5416/hypoxia model, lung | dose not given | baseline: SU5416/hypoxia vehicle | fold change | 1.08
COc1cc(/C=C/C(=O)CC(=O)/C=C/c2ccc(O)c(OC)c2)ccc1O | – | rat, high-fat diet hyperlipaemia | oral, 200 mg/kg daily, 4 weeks | – | body weight gain | 71.5 ± 13.2 g
C=CC(=O)Nc1cc(Nc2nccc(Nc3cc(Cl)c(F)cc3C(C)(C)O)n2)c(OC)cc1N1CC[C@@H](N(C)C)C1 | – | human, EGFR exon20ins NSCLC | concentration not given, unknown subtype | – | disease control rate | 80%
NC(=O)c1cnc2[nH]ccc2c1N[C@@H]1[C@@H]2CC3C[C@H]1C[C@@](O)(C3)C2 | flow cytometry, measured: CD4+ memory T cells | Japanese healthy subjects, peripheral blood | oral, 30 mg twice daily, day 4 | – | change from baseline | -1.02%
CCN(Cc1nc2c(N)nc3cc(-c4cc[nH]n4)ccc3c2[nH]1)C(C)=O | Kaplan-Meier | human advanced solid tumours | dose not given | – | median progression-free survival | 1.7 months
O=C(OC(C(F)(F)F)C(F)(F)F)N1CCN(Cc2cccc(Oc3ccccc3)c2)CC1 | PET | rhesus monkey, frontal cortex | intravenous, 0.03 mg/kg, pretreatment blocking, together with: [18F]T-401 | – | tracer distribution volume | 7.16 mL/cm3
O=C(O)CNC(=O)Cc1ccccc1 | – | ventricular cardiomyocytes, C57BL/6 mouse | dose not given, 0.264 s | – | sarcomere length | 1.66 µm
N#Cc1ccc2c(c1)[C@H]1CCCN(C(=O)c3ccc4[nH]cnc4c3)[C@H]1C2 | measured: fasting C-peptide | human, Phase II trial | oral, 240 mg once daily, day 28, adjusted mean, SE | – | change from baseline | 0.03 pmol/L
CN(C)C(=O)Oc1cccc([N+](C)(C)C)c1 | neuromuscular block reversal | rat | dose not given, 16.5 (unit not given), together with: cisatracurium | baseline: T1 twitch | train-of-four ratio | 95.3
N#Cc1ccn2c(-c3ccncc3)c(-c3ccc(F)cc3)nc2c1 | kinase binding, competitor, MIB/MS competition, measured: PKH3 | Candida albicans cell lysate | 100 nM | baseline: DMSO | log2 fold change | -0.157
C[C@H](Oc1ccc(Br)cc1-c1ccon1)C(=O)O | last response latency | human, tibialis anterior muscle | 400 mg, 15 Hz, SAD | – | difference from placebo | 0.613%
CC#CC(=O)N[C@H]1CCCN(c2c(F)cc(C(N)=O)c3[nH]c(C)c(C)c23)C1 | – | healthy volunteers, single ascending dose, serum | 30 mg, day 10 | – | change from baseline in serum IgM | 0 mg/L
C[C@@H](O)CCOC(=O)C[C@@H](C)O | measured: Val | human, plasma | 60 min, log2-transformed values | – | metabolite level | 7.72 ± 0.21 µmol/L
CCN1[C@@H](C(=O)NC23CCC(C(=O)O)(CC2)CC3)[C@H](c2cccc(Cl)c2F)[C@]2(C(=O)Nc3cc(Cl)ccc32)C12CCCCC2 | – | human, advanced solid tumours, TP53 wild type | dose not given | – | median progression-free survival | 7.9 months
N#Cc1ccc2c(-c3ccncc3)c(-c3ccc(F)cc3)nn2c1 | kinase binding, competitor, MIB/MS competition, measured: SHA3 | Candida albicans cell lysate | 10 µM | baseline: DMSO | log2 fold change | -0.539
O=C(O)CCC(=O)O.[2H]C([2H])([2H])Oc1cc(C)c2[nH]ccc2c1CN1CC[C@@H](C2CC2)C[C@H]1c1ccc(C(=O)O)cc1 | alternative complement pathway activity, Wieslab ELISA | human, serum | 125 mg twice daily, multiple ascending dose | – | trough inhibition | > 90%
COc1ncnn2ccc(-c3cnc4nc(C)n(Cc5nnc([C@@H](C)F)o5)c4c3)c12 | – | Homo sapiens, relapsed or refractory AML or MDS | dose not given, CR, CRi, mCR, MLFS or PR | – | overall response rate | 42.9%
CN[C@@H]1COc2c(S(=O)(=O)NC(=O)Nc3c4c(cc5c3CCC5)CCC4)cnn2C1 | measured: IL-1β | human participants, whole blood ex vivo | 900 mg single dose, 48 h, together with: LPS/ATP | baseline: baseline | inhibition | 48.4%
OC(CCN1CCCCC1)(c1ccccc1)C1CC2C=CC1C2 (stereo not drawn) | resting-state EEG | healthy elderly humans | oral, 4 mg, eyes closed, LS mean | baseline: baseline | change in EEG Beta2-power Fz-Cz | -6.2%
Cn1cc(Nc2nccc(-c3ccc4c(c3)CN(C3COC3)CC[C@H]4NC(=O)c3cn(C(C)(C)C)nn3)n2)cn1 | measured: MIF regulation of immunity | splenic B cells, mice | 30 mg/kg, IgD-activated in vivo | baseline: vehicle, direction not given | pathway activation z-score | -0.707
C[C@H]1C[C@H]2CSC(N)=N[C@@]2(c2nc(NC(=O)c3ccc(OC(F)F)cn3)cs2)CO1 | measured: Aβx-40 | healthy adults, plasma | 40 mg single dose, 48 h post-dose | baseline: placebo | percent change from baseline | -38.8%
CC(=O)OC(C)C[N+](C)(C)C (stereo not drawn) | – | rat colon ex vivo | 1 nM to 10 µM | – | contraction amplitude | increased
COc1nc(NCc2cn(-c3ccc(NC(=O)c4ccccc4)cc3)nn2)nc(OC)n1 | MTT | normal colonocytes, rat | 72 h | – | maximum non-toxic concentration | 1.9 ± 0.26 nM
N=C(N)NCCC[C@@H](NC(=O)CCOCCOCCNC(=O)[C@H](CCCCNC(=O)CC[C@H](NC(=O)c1ccc(NCc2cnc3nc(N)[nH]c(=O)c3n2)cc1)C(=O)O)NC(=O)CO/N=C/[C@H](F)[C@@H](O)[C@H](O)[C@H](O)CO)C(=O)NCC(=O)N[C@H](CC(=O)O)C(N)=O [fluorine-18 labelled] | – | nude mice, MDA-MB-231 xenograft, tumour | dose not given, 2.5 h, together with: unlabelled folic acid 200 µg | baseline: unblocked | reduction of tumour uptake | ~58%

Structure (SMILES) | assay | test system | setting | how to read | endpoint | result
CC[C@@H](C)[C@@H](NC(=O)[C@@H](Cc1ccc(O)cc1)NC(=O)[C@H]1CCCN1C(=O)[C@@H](CCCNC(=N)N)NC(=O)[C@H](N)Cc1c[nH]cn1)C(=O)N[C@H](C)C(=O)N[C@H](Cc1c[nH]cn1)C(=O)N[C@H](CCCNC(=N)N)C(=O)N[C@@H](C(=O)N[C@H](Cc1ccc(O)cc1)C(=O)N[C@H](CO)C(=O)N[C@H](Cc1ccccc1)C(N)=O)C(C)C | ex vivo flow cytometry | GL261-Luc brain tumour mice, tumour | dose not given | – | IFN-γ+ CD4+ T cell frequency | 2.73% and 3.21% and 2.7%
O=C(NO)c1ccc(CN(c2cnccn2)c2cnccn2)cc1 | – | human, refractory solid tumours | dose not given, phase I, RECIST 1.1, sample B patients | – | median progression-free survival | 1.8 months
NCC(=O)Nc1cncc(-c2nn3c(=O)cc(N4CCNCC4)nc3s2)c1 | ADP-induced platelet aggregation, light transmission aggregometry | human, stable CAD on aspirin, platelets ex vivo | subcutaneous, 0.075 mg/kg, 30 min post-dose, together with: ADP 20 µM | – | median inhibition | 85%
Cc1cc(F)cc2c(CCC(=O)N[C@@H]3C(=O)NC[C@H]3O)c(-c3ccc(F)cc3)[nH]c12 | – | APOL1 G2 mice, IFNγ-induced | 30 mg/kg twice daily, day 9 | – | urine albumin/creatinine ratio | 296 µg/mg and 245 µg/mg and 6150 µg/mg and 744 µg/mg and 1590 µg/mg
C[C@@H](Nc1cc(F)cc(F)c1)c1cc(C(=O)N(C)C)cc2c(=O)cc(N3CCOCC3)oc12 | immunohistochemistry, measured: phospho-PRAS40 | human, tumor biopsy | oral, 120 mg twice daily continuous, 312 h after first dose | baseline: baseline, direction not given | pPRAS40 H-score change | -42.2%
CN(C(=O)n1cnc(-c2ccc[n+]([O-])c2)c1)C1CCCCC1 | – | rats, brain | 10 mg/kg, 4 h | – | peak anandamide level | 75.1 pmol/g
Cc1cc([C@H]2C[C@H]3[C@@H](C)SC(N)=N[C@@]3(c3ccc(F)cc3F)CO2)on1 | measured: Aβx-42 | Mus musculus wild-type, brain | subcutaneous, 50 mg/kg, 7 h | – | Aβ42 level | 0.21 ng/g
N=C(N)NCCC[C@H](NC(=O)[C@H](CCCNC(=N)N)NC(=O)[C@H](CCCCN)NC(=O)[C@H](CCC(N)=O)NC(=O)[C@H](CCCCN)NC(=O)[C@H](Cc1ccc(O)cc1)NC(=O)[C@@H](N)CCCCN)C(=O)N[C@@H](CO)C(=O)N[C@@H](Cc1ccc(O)cc1)C(=O)N[C@@H](CCCCN)C(=O)O | – | human, dentin hypersensitivity patients | topical to tooth, 5 µg/tooth repeated, day 36, phase 1/2a trial, together with: cold water stimulus | direction not given | median change in VAS score | -23 mm
CC(C)NCC(O)c1ccc(O)c(O)c1 (stereo not drawn) | – | ventricular cardiomyocytes, C57BL/6 mouse | dose not given, 0.656 s | – | sarcomere length | 1.72 µm
Cc1cn(-c2cc(NC(=O)c3ccc(C)c(Nc4nccc(-c5cccnc5)n4)c3)cc(C(F)(F)F)c2)cn1 | measured: amyloid beta 40 | human, cerebrospinal fluid | dose not given, between 12 and 6 months, unit not given | baseline: placebo | median difference in change | 29
Cc1ccc(C(=O)Nc2ccnc(S(N)(=O)=O)c2)c(N2CCCC(F)(F)CC2)n1 | – | Macaca mulatta, C-nociceptors | intravenous, 0.6 mg/kg bolus then 0.8 mg/kg/h, 60 min | – | activity-dependent slowing | 79.6 ± 3.58 % baseline
CO[C@H]1CC[C@H](N2C(=O)CNc3ncc(-c4ccc(C(C)(C)O)nc4)nc32)CC1 | flow cytometry | stimulated T cells, human, blood | 60 mg single dose, 24 h, mean | baseline: baseline | p4EBP1 change from baseline | 11.7%
C[C@H]1O[C@@H](O[C@H]2CC[C@@]3(C)[C@@H](CC[C@]4(C)[C@@H]3C=C[C@]35OC[C@@]6(CCC(C)(C)C[C@H]63)[C@@H](O)C[C@]54C)[C@]2(C)CO)[C@H](O)[C@@H](O[C@@H]2O[C@H](CO)[C@@H](O)[C@H](O)[C@H]2O)[C@H]1O | – | pair-fed control mice | oral, 15 mg/kg/day | baseline: body weight | liver index | 3.12% and 3.47% and 3.09% and 2.77% and 3.56% and 2.9%
Cc1noc(C)c1-c1cc(C(O)(c2ccccn2)c2ccccn2)c2nc(C3CC3)[nH]c2c1 | measured: CCR2 expression | human patients | dose not given, day 1, 24 h | – | maximum inhibition | 28.5%
CCN1CCN(Cc2ccc(Nc3ncc(F)c(-c4cc(F)c5nc6n(c5c4)[C@H](C)CCC6)n3)nc2)CC1 | – | human advanced solid tumours | 100 mg, phase Ia monotherapy RECIST 1.1 | – | median progression-free survival | 6.7 months
Cc1cc([C@H]2C[C@H]3[C@@H](CF)SC(N)=N[C@@]3(c3ccc(F)cc3F)CO2)on1 | measured: Aβx-42 | Mus musculus wild-type, brain | subcutaneous, 100 mg/kg, 1 h | – | Aβ42 level | 0.5 ng/g
Cc1n[nH]c2ccc(-c3cc(OC[C@@H](N)Cc4ccccc4)cnc3-c3ccoc3)cc12 | kinase binding, competitor, MIB/MS competition, measured: TPK2 | Candida albicans cell lysate | 1 µM | baseline: DMSO | log2 fold change | 0.0369
CC1(C)CCC2(CC1)N[C@@H](C(=O)N[C@@H]1CC[C@@H](C(N)=O)OC1)[C@H](c1ccnc(Cl)c1F)[C@]21C(=O)Nc2cc(Cl)ccc21 | – | human, solid tumours | 60 mg/day, RECIST | baseline: patients | disease control rate | 33.3%
N#Cc1ccc2c(c1)[C@H]1CCCN(C(=O)c3ccc4[nH]cnc4c3)[C@H]1C2 | – | human, plasma | 20 mg, day 15, 360 h | baseline: placebo and baseline | change in 1.5-AHG | 0.5%
CCCCC1(CCCC)CN(c2ccccc2)c2cc(SC)c(OCC(=O)N[C@@H](C(=O)NCC(=O)O)c3ccccc3)cc2S(=O)(=O)C1 | measured: 7α-hydroxy-4-cholesten-3-one | human, plasma | 2.5 mg once daily, day 1 | – | plasma C4 | 21.7 ng/mL
CC(C)C[C@@H]1NC(=O)[C@H](CC(C)C)NC(=O)[C@H](Cc2c[nH]c3ccccc23)NC(=O)[C@H](CO)NC(=O)[C@H](Cc2c[nH]c3ccccc23)NC(=O)[C@@H]2CCCN2C(=O)[C@H](CC(C)C)NC(=O)[C@H](Cc2c[nH]cn2)NC(=O)[C@@H]2CCCN2C(=O)[C@H](CC(N)=O)NC(=O)[C@H](C)NC(=O)[C@H](Cc2ccc(O)cc2)NC(=O)[C@H](CS)NC(=O)[C@H](CCCCNC(=O)CN2CCN(CC(=O)O)CCN(CC(=O)O)CCN(CC(=O)O)CC2)NC1=O [lutetium-177 labelled] | immunohistochemistry | BALB/c mice, 4T1 tumour | dose not given, 7 days | – | Ki-67 positive cells | 8.85 ± 0.71%
c1ccc(-c2n[nH]cc2-c2ccnc3ccccc23)nc1 | kinase binding, competitor, MIB/MS competition, measured: CMK1 | Candida albicans cell lysate | 1 µM | baseline: DMSO | log2 fold change | 1.32
FC(F)(F)CN1CC(n2cc(Oc3ccn4nc(Cl)cc4n3)cn2)C1 | measured: brain C26:0 lyso-PC | Abcd1-/y mice | in feed, 100 mg/kg/day, 7 months | – | reduction | 54%
COc1cc(Nc2ncc3c(n2)-c2ccc(Cl)cc2C(c2c(F)cccc2OC)=NC3)ccc1C(=O)O | – | mouse, NB-EBc1 neuroblastoma xenograft | 10.4 mg/kg | direction not given | median response score | 2
